Results collected from several papers.
Lines come from different studies, so protocols differ.
RPS6KA2 C-terminal kinase domain: Ribosomal protein S6 kinase alpha-2, C-terminal kinase domain (RPS6KA2, Homo sapiens, UniProt Q15349)
RPS6KA2 N-terminal kinase domain: Ribosomal protein S6 kinase alpha-2, N-terminal kinase domain (RPS6KA2, Homo sapiens, UniProt Q15349)

SMILES | target | test | setting | scale | remaining binding [%]
Cc1ccc(-c2c(/C=C(\C#N)C(=O)NC(C)C)n(CCCO)c3ncnc(N)c23)cc1 | RPS6KA2 C-terminal kinase domain | binding, competition with immobilised ligand | 1 µM | – | 66
CC(C)=CC1OC(C)(C)C2C=C3C(=O)C(Cl)=CC(O)C3C3C(O)C4OC4C(=O)C132 (stereo not drawn) | RPS6KA2 C-terminal kinase domain | cell-free assay, competition with immobilised ligand | 10 µM | – | 82
Cc1cnc2nc1Nc1cccc(c1)COC/C=C/COCc1cc(ccc1OCCN1CCOCC1)N2 | RPS6KA2 C-terminal kinase domain | binding, competition with immobilised ligand | 0.1 µM | – | 100
Nc1ncc2c(n1)-c1c([nH]c3ccc(C4=CCOCC4)cc13)CCC2 | RPS6KA2 C-terminal kinase domain | binding, competition with immobilised ligand | 1 µM | – | 100
C=CC(=O)N1CCc2ccc(-n3c(=O)ccc4cnc5ccc(-c6cnn(C)c6)cc5c43)cc21 | RPS6KA2 C-terminal kinase domain | KINOMEscan | 1 µM | relative to: DMSO control | 68
COc1cc(Nc2nc(C)cc(-c3cnn4nc(OC)ccc34)n2)cc(C(F)(F)F)c1 | RPS6KA2 N-terminal kinase domain | binding, competition with immobilised ligand | 1 µM | – | 93
C=CC(=O)N1CCCC(n2c(=O)c3ncccc3n(Cc3ccc(Oc4ccccc4)cc3)c2=O)C1 (stereo not drawn) | RPS6KA2 C-terminal kinase domain | binding, competition with immobilised ligand | 1 µM | – | 100
CCN1CCN(Cc2ccc(C(=O)Nc3ccc(C)c(NCc4cnc5[nH]ccc5c4OC)c3)cc2C(F)(F)F)CC1 | RPS6KA2 N-terminal kinase domain | binding, competition with immobilised ligand | 1 µM | – | 91
COc1cc(Nc2nccc(-c3cnn4nc(OC)ccc34)n2)cc(C(F)(F)F)c1 | RPS6KA2 C-terminal kinase domain | binding, competition with immobilised ligand | 1 µM | – | 100
CNC1C[S+]2CC[S+]3CC[S+](C1)[Ru-4]321([N]=C=S)[n]2c3ccc(OC)cc3c3c4c(c5cc(F)c[n+]1c5c32)C(=O)NC4=O (stereo not drawn) | RPS6KA2 N-terminal kinase domain | KinomeScan | 0.1 µM | relative to: untreated | 84
COc1c(Cl)cccc1Nc1c(-c2ccncc2C#C[C@@]2(C)CCCN2C(=O)/C=C/CN(C)C)[nH]c2c1C(=O)NCC2 | RPS6KA2 C-terminal kinase domain | binding, competition with immobilised ligand | 3 µM | – | 84
CNC(=O)C1CCN(c2cc(C)c(F)cc2NC(=O)c2ccc(-c3cc(O)ccc3C)c(C)c2)CC1 | RPS6KA2 C-terminal kinase domain | binding, competition with immobilised ligand | 1 µM | – | 95

Some of these lines once more:
SMILES | target | test | setting | scale | remaining binding [%]
Nc1ncc2c(n1)-c1c([nH]c3ccc(C4=CCOCC4)cc13)CCC2 | RPS6KA2 C-terminal kinase domain | binding, competition with immobilised ligand | 1 µM | – | 100
C=CC(=O)N1CCc2ccc(-n3c(=O)ccc4cnc5ccc(-c6cnn(C)c6)cc5c43)cc21 | RPS6KA2 C-terminal kinase domain | KINOMEscan | 1 µM | relative to: DMSO control | 68
